Assay results pooled from the literature.
A part holds a random share of what one study measured.

Series 1
Target: TAR DNA-binding protein 43, full length, His tag (TARDBP, Homo sapiens, UniProt Q13148, residues 1-414)
Method: RNA Bind-n-Seq
Form: RNA
Sample: in vitro
Tested at: 20 nM
Setting: 6-mer, flanks averaged, single round
With: 150 mM LiCl
Baseline: input library
Reading: higher = stronger binding
Strand	6-mer enrichment (R)
UCAGGU	0.926
AUUCUA	0.881
AGACGC	0.86
AUAGGA	0.901
CAGGUC	0.865
UAUUGG	1.1
CAGGAU	0.862
GAGAAC	0.951

Series 2
Target: PABPC1L2, full length, GST fusion (mouse, UniProt A0ABA7IW68)
Method: RNAcompete
Form: RNA
Sample: in vitro
Tested at: 20 nM
Setting: 7-mer, probes averaged, single round
Baseline: mean of 7-mers
Reading: higher = stronger binding
Residues (chain): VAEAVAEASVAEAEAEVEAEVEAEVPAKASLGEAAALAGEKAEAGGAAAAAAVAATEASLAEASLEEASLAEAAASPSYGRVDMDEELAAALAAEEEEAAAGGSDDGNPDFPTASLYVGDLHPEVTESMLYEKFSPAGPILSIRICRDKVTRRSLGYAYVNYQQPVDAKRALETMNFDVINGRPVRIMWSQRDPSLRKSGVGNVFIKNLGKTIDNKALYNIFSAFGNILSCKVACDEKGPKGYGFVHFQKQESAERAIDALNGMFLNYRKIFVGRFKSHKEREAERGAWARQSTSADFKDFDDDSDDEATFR
Strand	7-mer Z-score
GUAGGGC	0.283
AUGUGGU	-0.108
GUUUCAC	-0.425
AUUUAGA	0.548
CAGACGU	-0.0826
UCAGCCA	-0.179
GGGCCCU	-0.238
UUAUCCA	-0.26

Series 3
Target: Interferon regulatory factor 7, full length, phosphomimetic (IRF7, Homo sapiens, UniProt Q92985, residues 1-503, S101K/S471D/S472D/S475D/S476D/S477D/S483D/S484D/S487D)
Method: protein-binding microarray
Form: double-stranded DNA, one strand shown
Sample: in vitro
Tested at: 250 nM
Setting: 60-bp whole probe
With: salmon DNA 0.4 mg/ml
Baseline: random background probes
Reading: higher = stronger binding
Constant ends, left off below: GCCTAGCAC … GTCTTGATTCGCTTGACGCTGCTG
Residues (chain): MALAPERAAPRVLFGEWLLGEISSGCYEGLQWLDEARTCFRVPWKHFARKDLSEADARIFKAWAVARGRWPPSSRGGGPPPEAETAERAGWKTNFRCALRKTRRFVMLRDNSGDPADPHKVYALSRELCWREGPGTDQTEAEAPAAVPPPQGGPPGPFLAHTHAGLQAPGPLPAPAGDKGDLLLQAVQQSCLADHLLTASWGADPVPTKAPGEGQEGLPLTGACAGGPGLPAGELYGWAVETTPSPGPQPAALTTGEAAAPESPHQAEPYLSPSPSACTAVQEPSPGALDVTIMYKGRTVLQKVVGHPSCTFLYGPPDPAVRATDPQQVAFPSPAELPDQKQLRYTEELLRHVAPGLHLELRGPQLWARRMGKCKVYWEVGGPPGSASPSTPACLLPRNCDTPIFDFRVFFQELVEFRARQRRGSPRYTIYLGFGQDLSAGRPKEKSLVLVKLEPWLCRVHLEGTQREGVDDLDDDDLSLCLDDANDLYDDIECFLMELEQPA
Strand	log fluorescence [z-score]
GACCTTCACCTCTCTGTCCCCGTGCTA	-0.0786
TTAGATATCAGACTGGATTAGTGCTAG	-0.141
TTAGATTTCGGTATCGGTTAGTGCTAG	3.01
TTACGACTGCTTCTCCTTTAGTGCTAG	-0.111
TCATTTTTAGCTTGCAAACTGTGCTAG	0.317
TTAGGTTTCTGTCTCGGTTAGTGCTAG	2.57
TCCTCTCTCTTTCCACTTGTGTGCTAG	1.1
GACGGTTTGGGACTGGGGACGTGCTAG	0.0171

Other studies, line by line
Sequence	target	test	system	setting	measurement	result
LNWFEIWIV	HLA class I histocompatibility antigen, A alpha chain, allele A*80:01 (Homo sapiens, UniProt P04439)	peptide-MHC binding	peptide	concentration not given	binding	inactive

A few entries again (other studies, line by line):
Sequence	target	test	system	setting	measurement	result
LNWFEIWIV	HLA class I histocompatibility antigen, A alpha chain, allele A*80:01 (Homo sapiens, UniProt P04439)	peptide-MHC binding	peptide	concentration not given	binding	inactive
